Published values gathered from unrelated publications.
Each numbered part is a random draw from the data of one study; scales do not carry over between parts.

Sample 1
Target: Sal-like protein 4, full length isoform A (SALL4, Homo sapiens, UniProt Q9UJQ4, residues 1-1053)
Chain of UniProt Q9UJQ4 (whole entry, looked up): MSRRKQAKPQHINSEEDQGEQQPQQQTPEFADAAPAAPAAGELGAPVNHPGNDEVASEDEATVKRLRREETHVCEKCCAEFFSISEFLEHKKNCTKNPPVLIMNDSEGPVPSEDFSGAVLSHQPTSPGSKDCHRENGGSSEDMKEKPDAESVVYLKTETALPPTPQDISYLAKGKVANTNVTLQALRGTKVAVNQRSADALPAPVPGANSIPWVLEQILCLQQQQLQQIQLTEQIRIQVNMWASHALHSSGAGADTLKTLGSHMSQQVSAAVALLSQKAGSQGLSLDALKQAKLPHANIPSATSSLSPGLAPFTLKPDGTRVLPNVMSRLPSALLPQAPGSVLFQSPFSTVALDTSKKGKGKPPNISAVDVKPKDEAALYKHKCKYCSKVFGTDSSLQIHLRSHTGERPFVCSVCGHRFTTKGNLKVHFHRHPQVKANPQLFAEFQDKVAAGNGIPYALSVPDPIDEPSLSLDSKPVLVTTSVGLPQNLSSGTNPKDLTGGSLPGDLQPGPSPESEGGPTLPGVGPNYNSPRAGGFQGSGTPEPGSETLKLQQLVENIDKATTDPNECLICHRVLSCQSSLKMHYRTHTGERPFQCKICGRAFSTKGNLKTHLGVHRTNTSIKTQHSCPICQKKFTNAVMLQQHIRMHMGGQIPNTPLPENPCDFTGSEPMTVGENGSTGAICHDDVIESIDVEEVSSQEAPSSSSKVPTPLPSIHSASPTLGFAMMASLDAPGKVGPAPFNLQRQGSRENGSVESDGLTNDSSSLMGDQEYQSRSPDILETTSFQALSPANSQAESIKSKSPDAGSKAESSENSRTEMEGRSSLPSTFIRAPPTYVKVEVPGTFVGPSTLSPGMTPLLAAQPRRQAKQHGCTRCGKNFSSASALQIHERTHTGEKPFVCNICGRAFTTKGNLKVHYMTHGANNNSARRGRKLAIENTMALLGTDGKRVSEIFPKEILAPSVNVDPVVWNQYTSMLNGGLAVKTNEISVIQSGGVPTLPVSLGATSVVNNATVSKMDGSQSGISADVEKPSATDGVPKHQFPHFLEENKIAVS
Technique: universal PBM
Form: double-stranded DNA, one strand shown
Medium: in vitro
Tested at: 600 nM
Setting: 8-mer, flanks averaged, mean of replicates
Reading: higher = stronger binding
Strand | E-score
ACAAAGGG | -0.0703
ATGGTTTC | 0.148
TGTCTGAA | 0.0504
CCGTTAGC | -0.155
GGGGGGTA | -0.329
CTATAGGC | 0.0176
ATAATCCG | 0.193
GCGGGGGA | -0.24
CGTGGTAA | 0.054

Sample 2
Target: RNA binding protein fox-1 homolog 2, RRM domain, GST-SBP tag (RBFOX2, Homo sapiens, UniProt O43251-10, residues 100-194)
Technique: RNA Bind-n-Seq
Form: RNA
Medium: in vitro
Tested at: 365 nM
Setting: natural RNA segment, single round, ends assumed
Baseline: no-protein control
Reading: higher = stronger binding
All sequences stand within: GGGAGUUCUACAGUCCGACGAUC … UGGAAUUCUCGGGUGCCAA
Construct (chain): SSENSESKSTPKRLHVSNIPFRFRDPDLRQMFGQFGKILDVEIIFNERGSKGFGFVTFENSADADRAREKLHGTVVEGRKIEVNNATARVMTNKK
Strand | RBNS enrichment (R)
UAUCUUGAUGCCAGUUUGCCAAAUCUGAUACUGUGAAAAAAUUUGAUAGCUUUUCUAAUGUCUGACUAGUAAAUUUUAAAAUGUCAUUCUUUUACAAAUCAUAAUUAGUA | 0.717
CUUCAUGGAGGGUGGUAACAGCACCUCAGUCCAGCCAAAAUGUUUAGAAACACUCAGUCUCUGGUCCCAGAGGAUGGCUUCUCAGGGCAUGCCACAAGUUAAAGGUCACC | 0.612
UGUUUUGGCCACGCCUCACCAAAUGUCUGUAAUGACCCAGUACUCACAACAUGUUCAGGAGGAGCUGGGUCAGAUUUUGACAGAGGGUAUGGGAAGGGAAAGGGGAGAAG | 0.481
CUGGGCUGGGGACCAGGAAGAAGUCACAAGUGGUGGGAGUAUCCUAGGGACAUGAGUCGUGCCCAGGGUAUAAACCCAAACCUGGUCAUUUCUUGAACAGUCUGUGAAUA | 0.487
AUCCCGCAACCAGUCAGCGCACCAGUGGUCUCCCGGUGUGAUUUUUUUUUUUUUUAAUUUCAGUUGUUUGUAAUAAGUAGAAUACACUACUGUAAACAUACGACCUUUGU | 1.12
GAAUAUGGUGAGAAAUUGGGAAAAAUGGACAUUGAUAGGCAUAUCAUCUGCUUUGUGUACAUAUGGUAUUAAAACUGAAAACAAAUAUUCUUGACAUUUGGGUUUCAAAA | 0.665
UACUCAAGUGACAGCUUCAGCAUUUCUUGGUAGCACCUACAGCAUUCUGAUUACAUGCAGGUUCCUGGAAGGAGUGUGUCAAUCAUUUAGCUGCAUGUCAUCGGCUCAGC | 1.24
CCCCUGACUUGUUCUGGCAAGGAACAGAAGUAAGGGUGUGAUCCAGCCCGUCCCCCUGGGACCCAUCCCUUCUCUAUAGGAAAAGCUCAGCGCAGGUAUUACAGGUAUGG | 0.217

Sample 3
Target: Interferon regulatory factor 7, full length, phosphomimetic (IRF7, Homo sapiens, UniProt Q92985, residues 1-503, S101K/S471D/S472D/S475D/S476D/S477D/S483D/S484D/S487D)
Technique: protein-binding microarray
Form: double-stranded DNA, one strand shown
Medium: in vitro
Tested at: 250 nM
Setting: 60-bp whole probe
With: salmon DNA 0.4 mg/ml
Baseline: random background probes
Reading: higher = stronger binding
All sequences stand within: GCCTAGCAC … GTCTTGATTCGCTTGACGCTGCTG
Target sequence (chain): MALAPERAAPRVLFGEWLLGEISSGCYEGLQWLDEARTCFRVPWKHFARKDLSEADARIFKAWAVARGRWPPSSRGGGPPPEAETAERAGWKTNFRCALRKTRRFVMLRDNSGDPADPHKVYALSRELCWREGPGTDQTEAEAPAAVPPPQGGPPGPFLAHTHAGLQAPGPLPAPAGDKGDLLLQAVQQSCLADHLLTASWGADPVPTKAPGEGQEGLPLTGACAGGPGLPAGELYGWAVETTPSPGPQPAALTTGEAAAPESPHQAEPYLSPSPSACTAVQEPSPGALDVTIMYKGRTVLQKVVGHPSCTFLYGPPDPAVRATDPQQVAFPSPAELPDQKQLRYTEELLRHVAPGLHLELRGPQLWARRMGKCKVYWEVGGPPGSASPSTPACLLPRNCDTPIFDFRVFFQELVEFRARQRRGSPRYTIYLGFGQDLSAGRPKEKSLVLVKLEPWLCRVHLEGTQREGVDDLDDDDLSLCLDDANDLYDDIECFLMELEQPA
Strand | log fluorescence [z-score]
TCATCTCTGCTCCTTCTGACTGTGCTA | 0.203
GACCGTATCCTTATCCTGACGTGCTAG | 0.592
TTAGGTTTCCTTATCCTATAGTGCTAG | 3.58
GACGGTAGCCTTATCCTGACGTGCTAG | -0.972
GGCGGACTGCTTCTCCTGACGTGCTAG | -0.79
GACGGTAGCGACACTGGGGACGTGCTA | -0.868
TCATCTTTTTTTCTTTTACTGTGCTAG | 1.36
GACGATTTCAGTTCTGAGACGTGCTAG | 0.288
TCACCTTTACATTCCCCACTGTGCTAG | 0.865

Further values, each from its own experiment
Molecule | target | assay | test system | setting | how to read | measurement | result
PhoQ, residues 284 288 289 292 302 303 ALAMYF | PhoP, residues 12 14 15 18 19 LHHSG (Escherichia coli, UniProt P23836) | Sort-seq, item: YFP reporter | E. coli | PhoQ-PhoP variant library, with: 10 µM Mg2+ | baseline: high Mg2+ state, higher = stronger signaling | fold induction | 7.85

A few entries again (sample 3):
Strand | log fluorescence [z-score]
GGCGGACTGCTTCTCCTGACGTGCTAG | -0.79
GACGGTAGCGACACTGGGGACGTGCTA | -0.868
TCATCTTTTTTTCTTTTACTGTGCTAG | 1.36
